Published values gathered from unrelated publications.
Numbered parts are unrelated; each lists some results of a single study. Positions count from the first letter of the parent shown.

Series 1
Target: CCNF, cyclin fold, Cln2 fusion (human)
Technique: yeast growth competition, sequencing
Matrix: yeast
Notes: strong parent motif
Baseline: not given
Direction: higher = stronger binding
Parent: EXO1 docking peptide (human); KPECGRVQRAIFQ
For `KPECGRAQRAIFQ [V7A]`, “normalised enrichment score” read 1.29.
`KPECGRVQRAIFA [Q13A]`: “normalised enrichment score” 2.32.
`KPECARVQRAIFQ [G5A]`: “normalised enrichment score” 2.48.
`APECGRVQRAIFQ [K1A]` — result for “normalised enrichment score”: 1.92.
`KPEAGRVQRAIFQ [C4A]`: “normalised enrichment score” 2.59.
Under “normalised enrichment score”, `KPECGRVQAAIFQ [R9A]` is recorded as 0.264.

Series 2
Target: Protein max, full length (MAX, Homo sapiens, UniProt P61244-2, residues 1-151)
Technique: protein-binding microarray
Form: double-stranded DNA, one strand shown
Matrix: in vitro
Tested at: not given
Notes: k-mer, scored over probes, only values ≥0.25
Direction: higher = stronger binding
`CGTGCCCA` gave an E-score of 0.291.
With `CGTGTTCA` the E-score was 0.416.
The E-score of `CCGTGCTC` is reported as 0.266.
`GGCCACAC` has an E-score of 0.251.
`GTGTCAAA` has an E-score of 0.278.
The E-score of `ACAGTGTG` is reported as 0.262.
The E-score of `CATGGTAG` is reported as 0.313.
`ACACGCCG` has an E-score of 0.401.
`CGTGACAA` has an E-score of 0.342.
`CCCCATGC` has an E-score of 0.414.
With `CACGTTCA` the E-score was 0.298.
The E-score of `CGTGGAAA` is reported as 0.344.
`AATCACAT` gave an E-score of 0.355.
`ACTCGTGA` gave an E-score of 0.409.
`ATGCCCGC` has an E-score of 0.275.
For `GCAGCGCA`, the E-score was 0.253.
`CGTGGGTA` has an E-score of 0.351.
`ACGTGACG` has an E-score of 0.394.
For `CAGGTGGG`, the E-score was 0.38.
`CCCGTGGA` has an E-score of 0.307.
`CCGTGGTC` gave an E-score of 0.253.
`CGTGCCTA` has an E-score of 0.29.
With `GCGCGCGC` the E-score was 0.286.

Series 3
Target: Ras GTPase-activating protein-binding protein 1, full length (G3BP1, Homo sapiens, UniProt Q13283)
UniProt Q13283, sequence (whole entry, looked up): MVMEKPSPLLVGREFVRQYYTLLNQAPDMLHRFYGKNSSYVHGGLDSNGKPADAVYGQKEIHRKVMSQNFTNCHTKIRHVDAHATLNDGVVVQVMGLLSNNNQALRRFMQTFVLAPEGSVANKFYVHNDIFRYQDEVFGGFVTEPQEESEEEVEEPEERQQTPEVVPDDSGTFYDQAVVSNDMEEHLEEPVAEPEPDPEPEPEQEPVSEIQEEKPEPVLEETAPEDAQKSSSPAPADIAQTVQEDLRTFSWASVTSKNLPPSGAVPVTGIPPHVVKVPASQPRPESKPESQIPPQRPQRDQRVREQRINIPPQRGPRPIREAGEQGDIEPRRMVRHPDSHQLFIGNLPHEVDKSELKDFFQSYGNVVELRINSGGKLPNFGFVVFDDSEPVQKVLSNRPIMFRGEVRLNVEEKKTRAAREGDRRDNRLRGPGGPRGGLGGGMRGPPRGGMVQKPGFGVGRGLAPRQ
Technique: RNA Bind-n-Seq
Form: RNA
Matrix: in vitro
Tested at: 200 nM
Notes: whole 134-nt RNA, ends assumed
With: 150 mM KCl
Baseline: input library
Direction: higher = stronger binding
`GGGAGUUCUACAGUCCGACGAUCAGAAAGCCCAGGAGGAACCACCUGCCAAGCUGCUGGAUGACCUUUUCCGAAAGACCAAGGCAGCUCCCUGCAUCUAUUGGCUCCCACUGAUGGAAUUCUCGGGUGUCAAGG` has a log2 enrichment of 0.182.
`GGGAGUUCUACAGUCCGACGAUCUCAAGUCCUGUGCUACACAUCGUAUGUACCGAAUCGGUUUUUUUGGUGGUUUGGAAAGUAUUAUGUUACGCCGUUCGGAUCUGCACUUCCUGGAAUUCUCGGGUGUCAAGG` gave a log2 enrichment of -1.09.
With `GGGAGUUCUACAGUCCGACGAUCUGGGAGGUGGAUUUUGUUUAAUUUUUUAGCUCAUUUCCAGGGGUGGGAAUUUUUUUUUAAUAUGUGUCAUGAAUAAAGUUGUUUUUGAAAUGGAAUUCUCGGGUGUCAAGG` the log2 enrichment was 0.166.
The log2 enrichment of `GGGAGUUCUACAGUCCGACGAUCCACCGACAACACGCACCCACACAGACACAGAGGGAAGGGGUUGGGAUGGGGACAGGGUGCACAGCAGGGCGGGGUAGGACCCCAGCCCCUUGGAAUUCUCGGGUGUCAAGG` is reported as 1.94.
For `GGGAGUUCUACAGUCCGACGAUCGGCAGUAGCAGCAGCGCCGGGUCCCGUGCGGAGGUGCUCCUCGCAGAGUUGUUUCUCGAGCAGCGGCAGUUCUCACUACAGCGCCAGGACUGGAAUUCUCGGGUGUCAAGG`, the log2 enrichment was -1.07.
The log2 enrichment of `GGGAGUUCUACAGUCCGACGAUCCCUGUGCUACACAUCGUAUGUACCGAAUCGGGGUUUUUUGGGUUUUUUGGGUUUUUUGGGGAAAGUAUUAUGUUACGCCGUUCGGAUCUGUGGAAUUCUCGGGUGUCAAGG` is reported as -0.555.
`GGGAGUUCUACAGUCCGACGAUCUCAAGUCCUGUGCUACACAUCGUAUGUACCGAAUCGGGGAAGGGAAGGGAAGGGAAAGUAUUAUGUUACGCCGUUCGGAUCUGCACUUCCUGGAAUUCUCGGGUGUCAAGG` gave a log2 enrichment of 1.21.
`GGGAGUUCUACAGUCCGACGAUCAAGUCCUGUGCUACACAUCGUAUGUACCGAAUCGGGGUUUUGGGUUUUGGGUUUUGGAAAGUAUUAUGUUACGCCGUUCGGAUCUGCACUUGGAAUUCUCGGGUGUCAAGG` gave a log2 enrichment of -0.771.
The log2 enrichment of `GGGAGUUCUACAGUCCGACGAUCUGUACAAACACUUUCCCAUCCCCCUCAUUAACCGGCUGGAGAAGCACUAUCUGGAUAUCAACACGGUGCUGGAGAAAUGGCAGAAGAGCAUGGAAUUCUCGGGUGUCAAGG` is reported as -0.0138.

Series 4
Target: Interferon regulatory factor 7, full length, phosphomimetic (IRF7, Homo sapiens, UniProt Q92985, residues 1-503, S471D/S472D/S475D/S476D/S477D/S483D/S484D/S487D)
Technique: protein-binding microarray
Form: double-stranded DNA, one strand shown
Matrix: in vitro
Tested at: 2200 nM top
Notes: 60-bp whole probe
With: salmon DNA 0.4 mg/ml
Baseline: random background probes
Direction: higher = stronger binding
All sequences stand within: GCCTAGCAC … GTCTTGATTCGCTTGACGCTGCTG
Residues (chain): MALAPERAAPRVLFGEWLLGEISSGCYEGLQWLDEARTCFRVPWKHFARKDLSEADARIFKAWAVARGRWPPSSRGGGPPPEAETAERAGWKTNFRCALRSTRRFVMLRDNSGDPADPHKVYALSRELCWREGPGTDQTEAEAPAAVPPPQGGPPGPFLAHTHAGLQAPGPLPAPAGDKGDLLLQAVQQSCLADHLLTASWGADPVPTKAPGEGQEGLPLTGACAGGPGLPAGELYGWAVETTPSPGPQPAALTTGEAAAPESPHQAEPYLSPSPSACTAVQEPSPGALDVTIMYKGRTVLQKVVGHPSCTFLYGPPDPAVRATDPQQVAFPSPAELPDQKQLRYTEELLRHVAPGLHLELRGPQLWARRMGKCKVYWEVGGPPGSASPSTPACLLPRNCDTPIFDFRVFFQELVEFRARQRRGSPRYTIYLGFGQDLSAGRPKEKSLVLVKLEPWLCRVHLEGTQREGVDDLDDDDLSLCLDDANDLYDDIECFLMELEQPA
`ATTCCTCTCACCTCGGCCTCGTGCTAG` — result for “fitted relative affinity”: 1.72 z-score.
For `TTAGGACTGGGGTTTCGGTCAGTGCTA`, “fitted relative affinity” read 0.461 z-score.
For `TTAGGTTTCGGTCTCGATTAGTGCTAG`, “fitted relative affinity” read 5.97 z-score.
`GACGGTCTCCTGCTCCTGACGTGCTAG`: “fitted relative affinity” 0.354 z-score.
For `TTAGGAATCGACTTTCGGTTAGTGCTA`, “fitted relative affinity” read 5.72 z-score.
Under “fitted relative affinity”, `GACGGTATCGACACTGGAGACGTGCTA` is recorded as -0.28 z-score.
Under “fitted relative affinity”, `GACAGTATCGGGTTTCGGGACGTGCTA` is recorded as 2 z-score.
Under “fitted relative affinity”, `TTAAATTCCAGTTTCGATTAGTGCTAG` is recorded as 6.34 z-score.
`GACGAGTTCAGTTTCGAGACGTGCTAG` — result for “fitted relative affinity”: 3.75 z-score.
Under “fitted relative affinity”, `TTAGATATCTGACTGGATTAGTGCTAG` is recorded as -0.17 z-score.
Under “fitted relative affinity”, `GAGGGTATCCTTTTCCTGACGTGCTAG` is recorded as 0.697 z-score.
Under “fitted relative affinity”, `GACGGTTTCCACTTTCGGGACGTGCTA` is recorded as 7.7 z-score.
`TCATCTAGGTTTTCTGGAACTGTGCTA` — result for “fitted relative affinity”: 0.382 z-score.
Under “fitted relative affinity”, `GACGATTTCATTATCGAGACGTGCTAG` is recorded as 1.22 z-score.
Under “fitted relative affinity”, `TTAGAACTGAGTATAGATTAGTGCTAG` is recorded as -0.681 z-score.
`TTAGGTTTCGGTACCGGTTAGTGCTAG` — result for “fitted relative affinity”: 4.97 z-score.
Under “fitted relative affinity”, `TTACCCCATCCCCCTTTTCTGTGCTAG` is recorded as 1.15 z-score.
For `TCAAATTAGTGTTTTGCACTGTGCTAG`, “fitted relative affinity” read -0.0207 z-score.

Single results of other studies
For `PhoQ, residues 284 288 289 292 302 303 ALAMYF`, the fold induction was 2.24 (PhoP, residues 12 14 15 18 19 NHFIF (Escherichia coli, UniProt P23836); Sort-seq, item: YFP reporter; E. coli; PhoQ-PhoP variant library, with: 10 µM Mg2+; baseline: high Mg2+ state, higher = stronger signaling).

Excerpt of the above (series 4):
Under “fitted relative affinity”, `GACAGTATCGGGTTTCGGGACGTGCTA` is recorded as 2 z-score.
Under “fitted relative affinity”, `TTAAATTCCAGTTTCGATTAGTGCTAG` is recorded as 6.34 z-score.
`GACGAGTTCAGTTTCGAGACGTGCTAG` — result for “fitted relative affinity”: 3.75 z-score.
Under “fitted relative affinity”, `TTAGATATCTGACTGGATTAGTGCTAG` is recorded as -0.17 z-score.
Under “fitted relative affinity”, `GAGGGTATCCTTTTCCTGACGTGCTAG` is recorded as 0.697 z-score.
Under “fitted relative affinity”, `GACGGTTTCCACTTTCGGGACGTGCTA` is recorded as 7.7 z-score.
`TCATCTAGGTTTTCTGGAACTGTGCTA` — result for “fitted relative affinity”: 0.382 z-score.
